Measurements pooled from the literature.
Compare with care: the assays were run in different laboratories.
Organism: Escherichia coli

SMILES = c1ccc(CN2CCOCCOCCN(CCCCCCCCCCCCN3CCOCCOCCN(CCCCCCCCCCCCN4CCOCCOCCN(Cc5ccccc5)CCOCCOCC4)CCOCCOCC3)CCOCCOCC2)cc1; test = checkerboard; test system = tetracycline-resistant; setting = together with: tetracycline; quantity = concentration restoring tetracycline activity; result = 625 nM
SMILES = CCCCCCCCCCCC1N=C(N)N=C(N)N1c1ccc(Cl)cc1.Cl (racemic); test = broth microdilution; test system = ATCC 25922; setting = together with: 7.4 mg/mL thymidine; quantity = MIC90; result = 8 µM
SMILES = CC[C@H](C)[C@H](NC(=O)[C@H](CCCCN)NC(=O)[C@H](CC(N)=O)NC(=O)[C@H](Cc1c[nH]c2ccccc12)NC(=O)[C@H](Cc1ccccc1)NC(=O)[C@H](CCCCN)NC(=O)[C@H](CCCNC(=N)N)NC(=O)[C@H](CC(C)C)NC(=O)[C@H](Cc1c[nH]c2ccccc12)NC(=O)[C@H](CCCCN)NC(=O)[C@H](CCCNC(=N)N)NC(=O)[C@H](CC(C)C)NC(=O)CNC(C)=O)C(=O)N[C@@H](CCCCN)C(=O)N[C@@H](CCCNC(=N)N)C(N)=O; test system = ATCC 25922; setting = 12 h, together with: plasma pretreatment; how to read = baseline: MIC without plasma pretreatment; quantity = MIC fold increase; result = 16 fold
SMILES = CC(C)C[C@@H]1NC(=O)[C@H](CCCCN)NC(=O)CNC(=O)[C@H]2CCCN2C(=O)[C@H](CCCCN)NC(=O)[C@H](CC(C)C)NC(=O)[C@H](CCCCN)NC(=O)[C@H](CC(C)C)NC(=O)[C@H](CCCCN)NC(=O)C(N)CCC=CCCC(C(N)=O)NC(=O)[C@H](CCCCN)NC(=O)[C@H](CC(C)C)NC(=O)[C@H](CCCCN)NC1=O (stereo partly shown); test = NPN uptake; test system = ATCC 25922; setting = 1× MIC, 1 h, pH 7, 37 °C; how to read = baseline: colistin; quantity = outer membrane permeabilization; result = ~70%
SMILES = COc1c2c(cc3oc(=O)cc(C)c13)C(=O)c1cc(C)cc(O)c1C2=O; test system = MTCC 739; setting = 100 µg/disc; quantity = zone of inhibition; result = < 8 mm
SMILES = CC(=O)[O-].O.O.O.O.[Ni+2].[O-]c1ccc(Br)cc1C=NCCN1CCOCC1; setting = 20 µL of 100 µM per disc; quantity = inhibition zone diameter; result = 29 mm
SMILES = CC(CCCOC(=O)CCC[N+](C)(C)C)C1CCC2C3CCC4CC(OC(=O)CCC[N+](C)(C)C)CCC4(C)C3CC(OC(=O)CCC[N+](C)(C)C)C12C (stereo not shown); test = inner membrane permeabilization, ONPG hydrolysis; setting = 90 min; quantity = permeabilizing concentration; result = ≥ 15.6 µg/mL
SMILES = C[C@]1(COC(=O)c2ccccc2O)[C@H](C(=O)O)N2C(=O)/C(=C/c3ccccn3)[C@H]2S1(=O)=O; test = broth microdilution; test system = TG1 expressing DHA-1; setting = 16 µg/mL; quantity = MIC of ceftazidime; result = 0.25 µg/mL
SMILES = c1ccc(CN2CCOCCOCCN(CCCCCCCCCCCCCCN3CCOCCOCCN(CCCCCCCCCCCCCCN4CCOCCOCCN(Cc5ccccc5)CCOCCOCC4)CCOCCOCC3)CCOCCOCC2)cc1; test = tetracycline MIC, checkerboard; test system = tetracycline-resistant (pBR322); setting = 1/2 MIC, together with: tetracycline; how to read = baseline: MIC alone over combination; quantity = fold enhancement; result = 4 fold
SMILES = COc1ccc(-c2ccn(CC[C@](C)(C(=O)NO)S(C)(=O)=O)c(=O)c2)c(F)c1; test = microbial growth, broth dilution; setting = clinical isolate; quantity = MIC90; result = 0.25 µg/mL
SMILES = O=[N+]([O-])c1ccc(CSc2nnc(C34CC5CC(CC(C5)C3)C4)n2-c2ccccc2)cc1; test system = IFO 3301; setting = 200 µg/disc, 24 h, 37 °C; quantity = inhibition zone diameter; result = < 10 mm
SMILES = CC[C@H](C)[C@H](NC(=O)[C@H](CS)NC(=O)[C@@H](NC(=O)[C@@H]1CCCN1C(=O)[C@H](Cc1ccccc1)NC(=O)[C@H](CC(N)=O)NC(=O)[C@@H](NC(=O)[C@H](CC(=O)O)NC(=O)CCNC(=O)CNC(=O)O[C@H]1CC[C@@]2(C)C(=CC[C@H]3[C@@H]4CC[C@H]([C@H](C)CCCC(C)C)[C@@]4(C)CC[C@@H]32)C1)[C@@H](C)O)[C@@H](C)CC)C(=O)N[C@@H](Cc1ccccc1)C(N)=O; test system = mouse, lung; setting = intratracheal, 25 nmol per mouse, 24 h; quantity = α-SMA expression; result = increased
SMILES = Fc1cc2nc3c4cccnc4c4ncccc4c3nc2cc1F.[Cl-].[Cl-].[Ru+2].c1ccncc1.c1ccncc1.c1ccncc1.c1ccncc1; setting = LED irradiation 470 nm; quantity = MIC90; result = 8 µM

Excerpt of the above:
SMILES = CC(C)C[C@@H]1NC(=O)[C@H](CCCCN)NC(=O)CNC(=O)[C@H]2CCCN2C(=O)[C@H](CCCCN)NC(=O)[C@H](CC(C)C)NC(=O)[C@H](CCCCN)NC(=O)[C@H](CC(C)C)NC(=O)[C@H](CCCCN)NC(=O)C(N)CCC=CCCC(C(N)=O)NC(=O)[C@H](CCCCN)NC(=O)[C@H](CC(C)C)NC(=O)[C@H](CCCCN)NC1=O (stereo partly shown); test = NPN uptake; test system = ATCC 25922; setting = 1× MIC, 1 h, pH 7, 37 °C; how to read = baseline: colistin; quantity = outer membrane permeabilization; result = ~70%
